{"data": "Literature values that unrelated publications cite", "note": "Each numbered part shows a few of the values that one paper quotes."}
{"data": "Block 1", "target": "HLA class I histocompatibility antigen, B alpha chain, allele B*15:09 (Homo sapiens, UniProt P01889)", "read-out": "peptide-MHC binding", "form": "peptide"}
{"Sequence": "YHENWSATL", "IC50 [nM]": 1}
{"Sequence": "FHYQDPFPL", "IC50 [nM]": 1}
{"Sequence": "FRDRGQHVL", "IC50 [nM]": 1}
{"data": "Further values, each from its own experiment"}
{"SMILES": "CNC(CC(C)C)C(=O)NC1C(=O)NC(CC(N)=O)C(=O)NC2CNC3C(=O)NC(C(=O)NC(C(=O)O)c4cc(O)cc(O)c4-c4cc3ccc4O)C(O)c3ccc(c(Cl)c3)Oc3cc2cc(c3OC2OC(CO)C(O)C(O)C2OC2CC(C)(N)C(O)C(C)O2)Oc2ccc(cc2Cl)[C@@H]1O (some centres unmarked)", "target or system": "vancomycin-sensitive bacteria", "conditions": "concentration not given", "scale": "reference: vancomycin", "measurement": "potency reduction", "value": "~30 fold"}
{"SMILES": "Cc1c(Cc2ccc(C(F)(F)F)cc2F)c[nH]c1C(=O)NC1CC1", "target or system": "Plasmodium falciparum", "assay": "parasite growth", "test system": "3D7", "measurement": "EC50", "value": "16 nM"}
{"SMILES": "Cc1ccc(C(=O)Nc2ccc(CN3CCN(C)CC3)c(C(F)(F)F)c2)cc1C#Cc1cnc2cccnn12", "target or system": "MCF-7", "measurement": "IC50", "value": "4510 nM"}
{"SMILES": "CN[C@H](CC(C)C)C(=O)N[C@H]1C(=O)N[C@@H](CC(N)=O)C(=O)N[C@H]2C(=O)NC3C(=O)N[C@H](C(=O)N[C@H](C(=O)NCCC[N+](C)(C)C)c4cc(O)cc(O)c4-c4cc3ccc4O)[C@H](O)c3ccc(c(Cl)c3)Oc3cc2cc(c3OC2OC(CO)C(O)[C@H](O)[C@@H]2O[C@H]2CC(C)(NCc3ccc(-c4ccc(Cl)cc4)cc3)[C@H](O)[C@H](C)O2)Oc2ccc(cc2Cl)[C@H]1O (some centres unmarked)", "test system": "mouse", "measurement": "MTD", "value": "≥ 50 mg/kg"}
{"SMILES": "COc1cccc(CCc2cc(O)c(=O)[nH]n2)c1", "target or system": "D-amino acid oxidase rat", "assay": "inhibitor", "measurement": "IC50", "value": "5.6 nM"}
